Measurements gathered from unrelated publications.
Compare with care: the assays were run in different laboratories. Several values in a cell are separate wells, animals, samples, runs or records. ± gives the spread as reported.
Organism: HIV-1

Cc1cc(C)cc(S(=O)(=O)c2c(C(=O)NCCCCNS(=O)(=O)c3ccc(Cl)cc3)[nH]c3ccc(Cl)cc23)c1 has an EC50 of 8.6 ± 0.82 nM (viral replication; MT-4, IIIB).
For Cc1cc(C#N)cc(C)c1Oc1cc(Nc2ccc(C#N)cc2)c(N)cc1[N+](=O)[O-], the EC50 was 32 ± 5 nM (viral replication, p24 ELISA; MT2, IIIB wild type).
The EC50 of CCN(CC)CCCC(C)Nc1ccnc2cc(Cl)ccc12 (centres unmarked) is reported as 31700 ± 4700 nM (cytopathic effect; MT4, NL4.3; 5 days).
COc1ccc2nc(NCc3ccc(CNCCCNC4CCCCC4)cc3)nc(NC3CCNCC3)c2c1 has an EC50 of 47.4 ± 18.3 nM (viral replication, luciferase reporter; TZM-bl, IIIB).
For O=C(O)Cn1c(=O)ccn(CCCCCCOc2ccc(Br)cc2)c1=O, the EC50 was over 100000 nM (viral replication, refers to: p24gag; MT4, Lai.04; 3 days).
COc1ccc2c(NC3CCNCC3)nc(NCc3ccc(CNCCCNC4CCCCC4)cc3)nc2c1 has an EC50 of 8.6 ± 5.3 nM (viral replication, luciferase reporter; TZM-bl, IIIB).
For Cc1[nH]c2ccccc2c1CC(=O)N[C@@H](Cc1ccccc1)C(=O)N(C)c1ccccc1, the EC50 was 790 ± 90 nM (HIV-1-induced cytopathicity, MTT; MT-4, wild type; 50% protection).
For O=C1CSC(c2c(Cl)cccc2Cl)N1CCC12CC3CC(CC(C3)C1)C2 (centres unmarked), the EC50 was 2000 nM (viral cytopathicity; CEM, IIIB; 4 days).
Cc1cn([C@H]2C[C@H](N=[N+]=[N-])[C@@H](CO)O2)c(=O)[nH]c1=O has an EC50 of 5.4 nM (viral replication, refers to: reverse transcriptase activity; human PBM cells, LAI; 144 h).
Cc1cc(C#N)cc(C)c1Oc1nc(Nc2ccc(C#N)cc2)nc(N)c1Br gave an EC50 of 1.42 ± 0.46 nM (viral replication, luciferase reporter; TZM-bl, NL4-3 wild type).
Nc1nc2c(ncn2COCCOP(=O)(O)OP(=O)(O)OP(=O)(O)O)c(=O)[nH]1 has an EC50 of 58000 ± 2600 nM (viral replication, refers to: p24 antigen; MT-4, LAI.04; cells preincubated with compound overnight).
The EC50 of Cc1cn(CC(=O)N[C@@H](C(=O)N(C)c2ccccc2)c2ccccc2)c(=O)[nH]c1=O is reported as over 20000 nM (viral replication; TZM-GFP, NL4-3).
The EC50 of O=C(O)c1cc(Br)ccc1-n1c(-c2ccccc2)nc2c(Br)cc(Br)cc2c1=O is reported as over 64.2 µg/mL (cytopathic effect; MT-4, IIIB; 5 days).
The EC50 of C=C(C)[C@@H]1CC[C@]2(NCCN3CCS(=O)(=O)CC3)CC[C@]3(C)[C@H](CC[C@@H]4[C@@]5(C)CC=C(C6=CC[C@@](CF)(C(=O)O)CC6)C(C)(C)[C@@H]5CC[C@]43C)[C@@H]12 is reported as about 0.17 µg/mL (viral load; human, HIV-1 patients, plasma).
With Cc1ccc(S(=O)(=O)NCCCCCNC(=O)c2[nH]c3ccc(Cl)cc3c2S(=O)(=O)c2cc(C)cc(C)c2)cc1 the EC50 was 27 ± 5 nM (viral replication; MT-4, IIIB).
With c1nc2c(NCc3ccc(CNCCCNC4CCCCC4)cc3)nc(N3CCC(C4CCNCC4)CC3)nc2[nH]1 the EC50 was 84.3 ± 15.8 nM (viral replication, luciferase reporter; TZM-bl, IIIB).
Cc1cc(C)cc(S(=O)(=O)c2c(C(=O)NCCCCCNS(=O)(=O)c3cccnc3)[nH]c3ccc(Cl)cc23)c1 gave an EC50 of 7.6 ± 2.7 nM (viral replication; MT-4, IIIB).
With c1nc2c(NCc3cncc(CNCCCNC4CCCCC4)c3)nc(N3CCNCC3)nc2[nH]1 the EC50 was 5.7 ± 1 nM (viral replication, luciferase reporter; TZM-bl, IIIB).
With O=c1[nH]c(=O)n([C@H]2C[C@H](O)[C@@H](CO)O2)cc1I the EC50 was 86500 nM and 65700 nM (viral replication, supernatant RT activity; human PBM cells, LAI; 6 days).
For COc1nc(NCCCNc2nc(Nc3ccc(C#N)c(OCC=C(C)C)c3)nc(OC)n2)nc(Nc2ccc(C#N)c(OCC=C(C)C)c2)n1, the EC50 was over 6000 nM (protection from viral cytopathicity, MTT; MT-2, IIIB).
With Nc1ccn([C@@H]2CS[C@H](COC(=O)Cn3c(=O)ccn(CCCCCCOc4ccc(Br)cc4)c3=O)O2)c(=O)n1 the EC50 was 2000 nM (viral replication, refers to: p24gag; MT4, Lai.04; 3 days).
Cc1cc(C#N)cc(C)c1Oc1cc(Nc2ccc(C#N)cc2)c(N)cc1N gave an EC50 of 211 ± 53 nM (viral replication, p24 ELISA; MT2, IIIB wild type).
With Cc1cn([C@H]2C[C@H](N=[N+]=[N-])[C@@H](COC(=O)Cn3c(=O)ccn(CCCCCCCCCCCCOc4ccc(Br)cc4)c3=O)O2)c(=O)[nH]c1=O the EC50 was 210 ± 100 nM (viral replication, refers to: p24gag; MT4, Lai.04; 3 days).
O=C(O)c1cc(Br)ccc1-n1c(-c2ccccc2)nc2ccc(Br)cc2c1=O has an EC50 of over 60.4 µg/mL (cytopathic effect; MT-4, IIIB; 5 days).
For Cn1cnc2c(NCc3ccc(CNCCCNC4CCCCC4)cc3)nc(N3CCNCC3)nc21, the EC50 was 3.4 ± 0.2 nM (viral replication, luciferase reporter; TZM-bl, IIIB).
O=C(O)c1cc(Br)ccc1-n1c(-c2ccccc2)nc2ccccc2c1=O gave an EC50 of over 88.2 µg/mL (cytopathic effect; MT-4, IIIB; 5 days).
For Cc1cc(C)cc(S(=O)(=O)c2c(C(=O)NCCCNS(=O)(=O)c3ccc(Br)cc3)[nH]c3ccc(Cl)cc23)c1, the EC50 was 140 ± 13 nM (viral replication; MT-4, IIIB).
For c1cc(CNCCCNC2CCCCC2)cc(CNc2nc(N3CCNCC3)nc3[nH]cnc23)c1, the EC50 was about 0.5 nM (viral replication, luciferase reporter; TZM-bl, IIIB).
The EC50 of Nc1ncnc2c1ncn2[C@H]1CC[C@@H](CO)O1 is reported as 590 nM (viral replication, supernatant RT activity; human PBM cells, LAI; 6 days).
NC12CC3CC(CC(C3)C1)C2 gave an EC50 of 94000 nM (viral replication; PBMC).
For Cc1cn([C@H]2C[C@H](N=[N+]=[N-])[C@@H](CO)O2)c(=O)[nH]c1=O, the EC50 was 100 nM (viral replication; MT4, NL4-3).
Cc1cn([C@H]2C[C@H](N=[N+]=[N-])[C@@H](COC(=O)Cn3c(=O)ccn(CCCCCCOc4ccc(Br)cc4)c3=O)O2)c(=O)[nH]c1=O has an EC50 of 530 ± 290 nM (viral replication, refers to: p24gag; MT4, Lai.04; 3 days).
The EC50 of Cc1cc(C#N)cc(C)c1Oc1nc(Nc2ccc(C#N)cc2)nc(N)c1Br is reported as 5.1 ± 9.2 nM (viral replication; MT-4, IIIB).
With CCN(C(=O)[C@H](Cc1ccccc1)NC(=O)CNC(=O)c1ccccc1)c1ccccc1 the EC50 was 2500 ± 30 nM (viral replication; TZM-GFP, NL4-3).
COc1ccc(S(=O)(=O)NCCNC(=O)c2[nH]c3ccc(Cl)cc3c2S(=O)(=O)c2cc(C)cc(C)c2)cc1 gave an EC50 of 85 ± 43 nM (viral replication; MT-4, IIIB).
O=c1ccn([C@H]2C=C[C@@H](CO)O2)c(=O)[nH]1 gave an EC50 of over 100000 nM (viral replication, supernatant RT activity; human PBM cells, LAI; 6 days).
The EC50 of Cc1cc(O)c(=O)c(O)c2c1C[C@@H](C(C)(O)CNCc1ccccc1F)CC2 (mixture of isomers) is reported as over 50000 nM (cytopathic effect; CEM-SS, RF).
The EC50 of COc1nc(Nc2ccc(C#N)c(OCC=C(C)C)c2)nc(OCCOCCOc2nc(Nc3ccc(C#N)c(OCC=C(C)C)c3)nc(OC)n2)n1 is reported as over 6000 nM (protection from viral cytopathicity, MTT; MT-2, IIIB).
Cc1cc(C)cc(C(=O)c2cc(Cl)ccc2OCCn2c3c(c(=O)[nH]c2=O)CCC3)c1 has an EC50 of 3 nM (viral replication; MAGI-CCR5, Ba-L, CCR5-tropic; co-addition with virus).
Cc1cc(C=C2C(=O)C=CC2=O)cc(C)c1O has an EC50 of 3600 nM (infectious virus production, refers to: p24; MT-4, IIIB; 3 d).
For Cc1cc(C)cc(S(=O)(=O)c2c(C(=O)NCCCNS(=O)(=O)c3ccc(Cl)cc3)[nH]c3ccc(Cl)cc23)c1, the EC50 was 17 ± 6.7 nM (viral replication; MT-4, IIIB).
With Cc1ccc(N(C)C(=O)[C@H](Cc2ccccc2)NC(=O)CNC(=O)c2ccccc2)cc1 the EC50 was 1600 ± 20 nM (viral replication; TZM-GFP, NL4-3).
The EC50 of COc1cc(NC(C)CCCNC(=O)c2cc(Br)ccc2N)c2ncccc2c1 (centres unmarked) is reported as 14100 ± 600 nM (cytopathic effect; MT4, NL4.3; 5 days).
The EC50 of O=C(CNC(=O)c1ccccc1)N[C@@H](Cc1ccccc1)C(=O)N1CCC[C@H]1C(=O)Nc1ccccc1 is reported as over 20000 nM (viral replication; TZM-GFP, NL4-3).
For O=C(O)c1cc(Br)cc(Br)c1-n1c(-c2ccccc2)nc2ccccc2c1=O, the EC50 was 101 µg/mL (cytopathic effect; MT-4, IIIB; 5 days).
With COc1cc2nc(NCc3ccc(CNCCCNC4CCCCC4)cc3)nc(NC3CCNCC3)c2cc1OC the EC50 was 21.7 ± 3 nM (viral replication, luciferase reporter; TZM-bl, IIIB).
Cc1cc(C)cc(S(=O)(=O)c2c(C(=O)NCCCCNS(=O)(=O)c3cccc(F)c3)[nH]c3ccc(Cl)cc23)c1 has an EC50 of 19 ± 5.1 nM (viral replication; MT-4, IIIB).

A few entries again:
For c1cc(CNCCCNC2CCCCC2)cc(CNc2nc(N3CCNCC3)nc3[nH]cnc23)c1, the EC50 was about 0.5 nM (viral replication, luciferase reporter; TZM-bl, IIIB).
The EC50 of Nc1ncnc2c1ncn2[C@H]1CC[C@@H](CO)O1 is reported as 590 nM (viral replication, supernatant RT activity; human PBM cells, LAI; 6 days).
NC12CC3CC(CC(C3)C1)C2 gave an EC50 of 94000 nM (viral replication; PBMC).
